Experimental data pooled from the literature.
A part holds a random share of what one study measured. Positions count from the first letter of the parent shown.

Study 1
Target: Interferon regulatory factor 7, full length, phosphomimetic (IRF7, Homo sapiens, UniProt Q92985, residues 1-503, S471D/S472D/S475D/S476D/S477D/S483D/S484D/S487D)
Chain of UniProt Q92985 (whole entry, unmodified, looked up): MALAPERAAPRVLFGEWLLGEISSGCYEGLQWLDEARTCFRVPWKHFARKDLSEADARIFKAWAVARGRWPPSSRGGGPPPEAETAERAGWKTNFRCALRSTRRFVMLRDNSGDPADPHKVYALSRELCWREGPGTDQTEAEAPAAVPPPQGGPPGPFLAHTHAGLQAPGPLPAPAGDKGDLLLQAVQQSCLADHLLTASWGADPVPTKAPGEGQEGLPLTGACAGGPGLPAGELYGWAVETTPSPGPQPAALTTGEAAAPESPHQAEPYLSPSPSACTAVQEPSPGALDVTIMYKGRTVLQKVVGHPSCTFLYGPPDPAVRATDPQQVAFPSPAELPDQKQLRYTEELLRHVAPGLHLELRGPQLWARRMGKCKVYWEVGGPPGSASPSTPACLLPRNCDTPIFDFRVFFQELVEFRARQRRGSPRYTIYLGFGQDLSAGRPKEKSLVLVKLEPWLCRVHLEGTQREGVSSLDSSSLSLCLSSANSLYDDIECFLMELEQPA
Method: protein-binding microarray
Molecule type: double-stranded DNA, one strand shown
Matrix: in vitro
Tested at: 2200 nM top
Setting: 60-bp whole probe
Together with: salmon DNA 0.4 mg/ml
Relative to: random background probes
Reading: higher = stronger binding
Quantity: fitted relative affinity
Constant ends, left off below: GCCTAGCAC … GTCTTGATTCGCTTGACGCTGCTG
GACGGTTTCGGTATCGGGATGTGCTAG: 7.93 z-score
TCAGGCTTCTATGTAGTACTGTGCTAG: 0.275 z-score
TCATAACTCAAGATTCCTACTGTGCTA: 0.357 z-score
TCATTTTGCACTCTCTAACTGTGCTAG: 2.87 z-score
TTAGGTTTCCGGACTGGGTTAGTGCTA: 0.535 z-score
GACGATTTGGGGTATCGAGACGTGCTA: 0.647 z-score
TCACTTTTTGCTTTCTTACTGTGCTAG: 4.23 z-score
TTAGGTATCGGGTATCGGCTAGTGCTA: 0.291 z-score
GACGATCTCATTATCGAGACGTGCTAG: 0.532 z-score
TTAGGTCTCCTACTGCTATAGTGCTAG: 0.613 z-score
GACGGTTTCCGGTTTCGGGACGTGCTA: 6.91 z-score
TCATTTTTTACTTCGGGACTGTGCTAG: 1.85 z-score
GACTTTTTAGATATCTTTTTGTGCTAG: 0.726 z-score
GACGGTTTCGGGTTTCGGGCCGTGCTA: 9.21 z-score
TTCATTTTTTTTTTCATCATGTGCTAG: 1.99 z-score
TCAGTTCTTATCCTTCCCACTGTGCTA: 2.46 z-score
GACGATTTCGGGTTGCGAGACGTGCTA: 6.05 z-score
GACGGTATCCTTTTCCTGACGTGCTAG: 1.41 z-score
TCAATTCTGAATTCGAAACTGTGCTAG: 0.925 z-score

Study 2
Target: Histone acetyltransferase KAT6A, both winged helices, GST fusion (KAT6A, Homo sapiens, UniProt Q92794, residues 1-181)
Method: protein binding microarray
Molecule type: double-stranded DNA, one strand shown
Matrix: in vitro
Tested at: not given
Setting: 8-mer, flanks averaged, mean of 2 arrays, mostly near background
Relative to: not given
Reading: higher = stronger binding
Quantity: E-score
Construct (chain): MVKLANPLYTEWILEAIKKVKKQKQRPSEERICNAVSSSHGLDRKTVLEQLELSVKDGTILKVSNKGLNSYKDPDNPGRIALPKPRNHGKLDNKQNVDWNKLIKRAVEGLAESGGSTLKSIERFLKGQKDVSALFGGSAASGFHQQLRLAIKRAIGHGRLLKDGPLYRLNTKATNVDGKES
GCGGGAAC: 0.319
GATTGTAA: -0.129
ATTGTTCA: -0.0164
AAAATAGG: -0.157
CGCCAACG: 0.179
ACGGTGTC: 0.188
CCTACGCG: 0.281
TCGATCGA: 0.133
AAACTGTC: -0.0868
ATGAGAGA: -0.0906
AAAGTCAA: -0.103
ACCGGGCA: 0.202
GACTCACA: -0.196
ACGACAAC: 0.0426
CCCTAAAA: -0.212
AGTCCCGA: 0.0385
CTTCAGTC: -0.251
GGCCTAAC: -0.0976
AGTGGTAC: -0.141
TCTGGCAA: -0.246

Study 3
Target: Prothrombin, mature alpha-thrombin (F2, Homo sapiens, UniProt P00734)
Method: aptamer microarray, sandwich
Molecule type: DNA with 2'F-ANA
Matrix: in vitro
Tested at: 200 nM
Setting: whole 15-mer aptamer, many near background
Together with: Cy3 exosite-II aptamer, 400 nM
Reading: higher = stronger binding
Quantity: mean fluorescence intensity
Strand: GGTTGGTGTGGTTGG
2'F-ANA at 2 4 7 9 10 11: 208 a.u.
2'F-ANA at 2 3 7 8 10 11 13 14: 301 a.u.
2'F-ANA at 2 10 11 12 13 14: 92.4 a.u.
2'F-ANA at 1 2 3 8 9 10 14 15: 55.2 a.u.
2'F-ANA at 1 5 8 11 13: 99.2 a.u.
2'F-ANA at 2 5 6 7 8 10 11 14 15: 50.4 a.u.
2'F-ANA at 1 4 5 6 7 9 10 11 12 13 15: 48.1 a.u.
2'F-ANA at 4 6 8 9 11 15: 209 a.u.
2'F-ANA at 1 2 3 5 6 7 11 12 15: 82.7 a.u.
2'F-ANA at 4 5 7 8 13 14: 60.4 a.u.
2'F-ANA at 2 5 6 7 11 15: 68.8 a.u.
2'F-ANA at 3 4 7 9 10 11 13 14: 196 a.u.
2'F-ANA at 3 4 5 6 8 9 11 13 14 15: 49.1 a.u.
2'F-ANA at 1 6 7 9 11 12: 206 a.u.
2'F-ANA at 1 2 3 5 6 8 9 10 12 14 15: 49.1 a.u.
2'F-ANA at 2 4 5 8 10 11 13 14 15: 49.1 a.u.
2'F-ANA at 1 2 3 7 8 9 12 14: 116 a.u.
2'F-ANA at 3 5 6 7 8 9 10 12 13 15: 63.5 a.u.
2'F-ANA at 2 3 4 14: 363 a.u.
2'F-ANA at 1 3 4 13 15: 153 a.u.
2'F-ANA at 1 3 8 9 12 13 15: 424 a.u.
2'F-ANA at 1 2 3 4 6 8 13 14: 58.7 a.u.
2'F-ANA at 3 4 6 7 8 9 10 12 14 15: 166 a.u.

Study 4
Target: ATF3, bZIP domain (human)
Method: DHFR protein complementation
Matrix: yeast
Setting: single substitutions, most at no-binding floor
Relative to: wild-type JUN-FOS pair
Reading: higher = stronger binding
Quantity: binding fitness
Parent: JUN, bZIP domain (human); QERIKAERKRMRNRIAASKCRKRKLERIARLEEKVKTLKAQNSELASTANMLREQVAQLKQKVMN; partner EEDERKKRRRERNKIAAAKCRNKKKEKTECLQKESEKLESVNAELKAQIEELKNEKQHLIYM
A29T: -0.144 natural log
L38S: -0.983 natural log
Q41T: -0.286 natural log
V35E: -1.39 natural log
L38K: -1.17 natural log
R53N: -0.424 natural log
K39F: -0.861 natural log
E33R: -0.21 natural log
T37E: -0.0605 natural log
L31M: -0.178 natural log
K34I: -0.292 natural log
S47M: -0.16 natural log
R30S: -0.0105 natural log
E44Y: -0.26 natural log
L52S: -1.41 natural log
N42W: -0.474 natural log
A57L: -0.317 natural log
A40E: -0.079 natural log

Repeated from above (study 3):
2'F-ANA at 1 5 8 11 13: 99.2 a.u.
2'F-ANA at 2 5 6 7 8 10 11 14 15: 50.4 a.u.
2'F-ANA at 1 4 5 6 7 9 10 11 12 13 15: 48.1 a.u.
2'F-ANA at 4 6 8 9 11 15: 209 a.u.
2'F-ANA at 1 2 3 5 6 7 11 12 15: 82.7 a.u.
2'F-ANA at 4 5 7 8 13 14: 60.4 a.u.
